# Assay results of several laboratories.
# Every numbered part comes from another study and shows a few of its results, in no order. Changes are numbered by the printed parent chain.

# Set 1
# Target: Probable WRKY transcription factor 33, C-terminal DNA-binding domain (WRKY33, Arabidopsis thaliana, UniProt Q8S8P5, residues 346-449)
# Method: DNA-protein interaction ELISA
# Molecule type: double-stranded DNA, one strand shown
# Sample: in vitro, bacterial lysate
# Tested at: not given
# Notes: whole dsDNA probe, crude lysate protein
# Reference: highest signal in screen
# Reading: higher = stronger binding
# Residues (chain): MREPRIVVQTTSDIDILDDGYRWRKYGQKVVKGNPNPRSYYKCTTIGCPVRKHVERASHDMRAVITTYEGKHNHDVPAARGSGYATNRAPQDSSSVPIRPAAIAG
Oligonucleotide,relative absorbance
AAAAAATCTATTCCATTTCGCCTTCTAAAA,57 % of maximum
AAAAAAACTCAACTAGTGAACCACCAAAA,37.7 % of maximum
AAAAAAATATTTGAGCTAGGTTATCAAAAA,42.4 % of maximum
AAAAAATTAGCTTATCCTTGCTTGTGAAAA,31.8 % of maximum
AAAAAATCCCCCCGTTTCACTCTTGCAAAA,30.5 % of maximum
AAAAAATTCAGAGCTTCGAGGTTCCGAAAA,28.9 % of maximum
AAAAAAATCCCACTTCATTCTAAAAA,40.5 % of maximum
AAAAAAGTCTAAGGACTTATAGCTGTAAAA,99.5 % of maximum

# Set 2
# Target: CREBL2, bZIP domain (human)
# Method: DHFR protein complementation
# Sample: yeast
# Notes: single substitutions, most at no-binding floor
# Reference: wild-type JUN-FOS pair
# Reading: higher = stronger binding
# Starting sequence: JUN, bZIP domain (human); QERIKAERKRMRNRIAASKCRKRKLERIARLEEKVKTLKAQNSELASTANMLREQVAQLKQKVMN; partner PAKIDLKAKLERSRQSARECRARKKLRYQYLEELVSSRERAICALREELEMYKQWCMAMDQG
Variant,binding fitness [natural log]
A46I,-1.51
Q41K,-1.2
A57N,-1.52
E33A,-1.41
T37G,-1.49
A46G,-1.37
N42K,-1.55
Q55T,-1.48

# Set 3
# Target: CCNB2, cyclin fold, Cln2 fusion (human)
# Method: yeast growth competition, sequencing
# Sample: yeast
# Notes: weak parent motif
# Reference: not given
# Reading: higher = stronger binding
# Starting sequence: PKN2 docking peptide (human); VSAVRKLDFSDTM; partner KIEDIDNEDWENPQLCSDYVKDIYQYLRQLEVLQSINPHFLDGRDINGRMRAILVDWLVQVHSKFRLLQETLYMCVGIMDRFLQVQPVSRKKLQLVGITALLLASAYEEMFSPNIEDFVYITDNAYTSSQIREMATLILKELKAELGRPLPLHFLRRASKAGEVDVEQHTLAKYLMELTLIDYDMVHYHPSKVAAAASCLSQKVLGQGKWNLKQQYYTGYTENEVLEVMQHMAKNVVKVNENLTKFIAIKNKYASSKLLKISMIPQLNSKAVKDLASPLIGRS
Variant,normalised enrichment score
T12C,1.73
T12R,0.372
V4Q,0.257
D8C,0.495
D8I,0.205
V4N,0.249
T12I,0.904
V4A,0.413

# Other studies, line by line
Structure (SMILES),organism,effect on,tested at,time,endpoint,value
CN(C)CC/C=C1/c2ccccc2COc2ccc(CC(=O)O)cc21,Sarcocystis neurona,parasite activity,10 µM,96 h,activity class,inactive

# Repeated from above (set 2):
Variant,binding fitness [natural log]
Q55T,-1.48
A57N,-1.52
